Measured values from different studies.
Each numbered part is a random draw from the data of one study; scales do not carry over between parts.

Series 1 — method: protein binding microarray; form: double-stranded DNA, one strand shown; matrix: in vitro; tested at: not given; relative to: not given; reading: higher = stronger binding
Target: Histone acetyltransferase KAT6A, both winged helices, GST fusion (KAT6A, Homo sapiens, UniProt Q92794, residues 1-181)
Notes: 8-mer, flanks averaged, mean of 2 arrays, mostly near background
Residues (chain): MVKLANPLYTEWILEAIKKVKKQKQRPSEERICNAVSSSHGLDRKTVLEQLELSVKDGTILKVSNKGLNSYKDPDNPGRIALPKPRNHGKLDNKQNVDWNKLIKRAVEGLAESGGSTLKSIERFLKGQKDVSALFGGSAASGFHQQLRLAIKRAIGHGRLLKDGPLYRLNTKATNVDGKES
| Sequence | E-score |
| --- | --- |
| AAGTTGCT | -0.175 |
| AGATTGCA | -0.0753 |
| CGTGCAGC | 0.122 |
| TACATATA | -0.0442 |
| CAGGCGGC | 0.213 |

Series 2 — method: universal PBM; form: double-stranded DNA, one strand shown; matrix: in vitro; tested at: not given; reading: higher = stronger binding
Target: Sal-like protein 4, full length isoform B (SALL4, Homo sapiens, UniProt Q9UJQ4-2, residues 1-616)
Notes: 8-mer, flanks averaged, mean of replicates
| Sequence | E-score |
| --- | --- |
| AGTAAAGA | 0.139 |
| GGGGTACA | -0.163 |
| AGTAAGCC | -0.114 |
| GTCAGTAA | 0.0877 |
| GGCAAGAC | -0.0672 |

Series 3 — method: protein-binding microarray; form: double-stranded DNA, one strand shown; matrix: in vitro; tested at: 2200 nM top; notes: 60-bp whole probe; together with: salmon DNA 0.4 mg/ml; relative to: random background probes; reading: higher = stronger binding
Target: Interferon regulatory factor 7, full length, phosphomimetic (IRF7, Homo sapiens, UniProt Q92985, residues 1-503, S471D/S472D/S475D/S476D/S477D/S483D/S484D/S487D)
Target sequence (chain): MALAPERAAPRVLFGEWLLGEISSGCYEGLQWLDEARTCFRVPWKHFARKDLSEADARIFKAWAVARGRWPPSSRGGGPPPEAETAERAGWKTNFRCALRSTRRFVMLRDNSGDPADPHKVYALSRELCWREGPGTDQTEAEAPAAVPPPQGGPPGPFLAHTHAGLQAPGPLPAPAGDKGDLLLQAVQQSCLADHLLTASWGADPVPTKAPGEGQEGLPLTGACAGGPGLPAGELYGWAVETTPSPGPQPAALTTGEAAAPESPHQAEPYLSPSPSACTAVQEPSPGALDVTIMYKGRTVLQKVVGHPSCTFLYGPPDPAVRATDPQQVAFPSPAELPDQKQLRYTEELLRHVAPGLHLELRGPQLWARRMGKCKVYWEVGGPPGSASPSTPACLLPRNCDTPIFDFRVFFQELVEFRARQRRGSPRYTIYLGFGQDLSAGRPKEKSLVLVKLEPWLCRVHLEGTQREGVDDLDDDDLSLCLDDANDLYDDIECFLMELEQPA
| Sequence | fitted relative affinity |
| --- | --- |
| GCCTAGCACTCAGGTAGCCTTATCCCACTGTGCTAGGTCTTGATTCGCTTGACGCTGCTG | 0.45 z-score |
| GCCTAGCACTCAATTTTCCAAATGCCACTGTGCTAGGTCTTGATTCGCTTGACGCTGCTG | 2.65 z-score |
| GCCTAGCACAGAAGATAAGCTGCAAGAAAGTGCTAGGTCTTGATTCGCTTGACGCTGCTG | -1.51 z-score |

Further values, each from its own experiment
| Substance | target | assay | test system | setting | scale | quantity | result |
| --- | --- | --- | --- | --- | --- | --- | --- |
| PhoQ, residues 284 288 289 292 302 303 TGYLSA | PhoP, residues 12 14 15 18 19 SGWQI (Escherichia coli, UniProt P23836) | Sort-seq, refers to: YFP reporter | E. coli | PhoQ-PhoP variant library, together with: 10 µM Mg2+ | relative to: high Mg2+ state, higher = stronger signaling | fold induction | 8.4 |

Some of these lines once more (series 1):
| Sequence | E-score |
| --- | --- |
| TACATATA | -0.0442 |
| CAGGCGGC | 0.213 |
